Assay results from different studies.
Compare with care: the assays were run in different laboratories. ± marks the error that the study gave.
Organism: Salmonella typhimurium

For `OC(CCN1CC=C(c2ccc(F)cc2)CC1)c1ccc(F)c2ccccc12` (stereo not drawn), the induction factor was 0.9 (SOS response, SOS/umu test; TA1535/pSK1002, TGA medium; 0.000244 mg/mL, 4 h, without S9; reference: untreated).
Under “revertant colonies per plate”, `CNC(=O)c1c(N(C)N=O)ncn1C` is recorded as 18.7 ± 7 (mutagenicity, Ames plate incorporation; TA1535; 150 µg/plate, without S9, methanol).
The revertant ratio of `Cc1cc(C(=O)NC(C)(C)COc2cccc3c2C(N)=NS(=O)(=O)N3)cc(C)n1` is reported as 1.2 (Ames test, initial; TA100; 5000 µg/plate; reference: solvent control).
`CN(CC(C)(C)C)N=O` — result for “revertant colonies per plate”: 11.3 ± 2 (mutagenicity, Ames plate incorporation; TA1537; 1500 µg/plate, without S9, methanol).
Under “revertants per plate”, `CC(=O)N1CCC(C(=O)N2CCN3C(=O)c4cc(-c5ccccc5)ccc4NC(=O)C3C2)CC1` (stereo not drawn) is recorded as 32.5 (TA98; 5.0 µg/plate).
`O=[N+]([O-])c1ccc(N2CCC(NCCC(O)c3ccc(F)c4ccccc34)CC2)c(C(F)(F)F)c1` (stereo not drawn) gave a survival of 93% (SOS/umu test; TA1535/pSK1002; 0.063 mg/mL, 4 h, without S9, full range).
Under “revertant colonies per plate”, `CC(C)N(N=O)C(C)C` is recorded as 21 ± 3 (mutagenicity, Ames plate incorporation; TA1535; 2500 µg/plate, without S9, methanol).
`O=[N+]([O-])c1ccc(NC2CCNCC2)c(C(F)(F)F)c1` has a survival of 99.3% (SOS/umu test; TA1535/pSK1002; 0.031 mg/mL, 4 h, without S9, full range).
`COc1cccc(-c2n[nH]c(SCc3ccccn3)n2)c1OC` — result for “revertant colonies per plate”: 8 (Ames test, plate incorporation; TA1537; 0.016 mg/plate, without S9).

Repeated from above:
Under “revertant colonies per plate”, `CC(C)N(N=O)C(C)C` is recorded as 21 ± 3 (mutagenicity, Ames plate incorporation; TA1535; 2500 µg/plate, without S9, methanol).
